Results collected from several papers.
Every numbered part comes from another study and shows a few of its results, in no order. Substitutions count along the parent as printed.

Sample 1
Target: Hepatocyte nuclear factor 3-alpha (Foxa1, Mus musculus, UniProt P35582, residues 1-468, full length assumed)
Method: EMSA with sequencing
Molecule type: double-stranded DNA, one strand shown
Medium: in vitro
Tested at: 10 and 20 nM
Notes: whole designed probe, mean of two concentrations, ends assumed
Relative to: negative control set to 0
Direction: higher = stronger binding
Target sequence (chain): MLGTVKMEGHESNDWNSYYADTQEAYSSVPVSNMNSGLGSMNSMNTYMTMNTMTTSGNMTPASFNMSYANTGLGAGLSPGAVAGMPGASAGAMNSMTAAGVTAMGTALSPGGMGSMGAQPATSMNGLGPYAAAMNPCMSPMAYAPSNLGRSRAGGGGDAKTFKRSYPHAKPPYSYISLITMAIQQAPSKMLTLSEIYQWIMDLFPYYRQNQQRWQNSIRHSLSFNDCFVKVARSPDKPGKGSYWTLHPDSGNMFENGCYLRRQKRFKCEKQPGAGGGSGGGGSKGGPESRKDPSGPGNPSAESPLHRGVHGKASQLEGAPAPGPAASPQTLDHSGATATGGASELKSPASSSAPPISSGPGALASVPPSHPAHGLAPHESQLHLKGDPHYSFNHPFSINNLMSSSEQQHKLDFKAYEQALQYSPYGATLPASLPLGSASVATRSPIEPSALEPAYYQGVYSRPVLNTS
Strand | normalised bound fraction
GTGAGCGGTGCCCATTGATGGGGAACTGATACAGAATTTCTCAGTATAATTACCTCCAGCCAGGTTGCTTTTTTAGCTCAAAAGAAAGATAAAAGGCGGAGTCCTGTAAATAAAGGGAATGTAATCTTGGAGACTGAACCAAAGGCAAGTTACGGGGAGATAAGAATACCTGAAGAGAATTCGATTCAGCTTGATGGTTTTACAGAAGCATATGAAAGTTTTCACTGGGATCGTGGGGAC | 0.0333 ratio
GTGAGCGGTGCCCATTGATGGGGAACAGGTGAATTGGCTGCTTCCATCCTGGCTTGGAACTTCAGACATAGAAGCCTTGGGACTTTCTCAGGACTTTCTCCTGACTCATGCCAGATTCAGCAAACAAGCATCTCTGTGGATCACGTGACCTTAGCCAGGGATGTTGGTGAAACTGTGTGTTGGTCTAGGTACCTAGCCCATGCTAGGTGCTCATCGAATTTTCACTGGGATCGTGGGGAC | 0.0404 ratio
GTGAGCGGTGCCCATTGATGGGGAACATCTTCCCCCTCTTCCTTGCCCCACCAGCTCACCTTCCCGGGTTATTTGCAGATAGGAAAATAAATAAAGCCGGCATTCGTTAACCCTCTTCTGGCGCAAACTGCTGTTTGCTCTGGATGAATCATGGTCCTTTGGCGACGCCAGGCTCCGGGAGAGCAAAGCTTTTTTTTTGGGCCATGATCCGGGGTGGCCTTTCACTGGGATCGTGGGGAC | 0.33 ratio
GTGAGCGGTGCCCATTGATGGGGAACTTAAGTGAAATCAACTGAAACCTTACTTTTTTTTGCTTTTATACCTAAAATAGAGGATTTAGATATATTTTCTAGGAACGATGATGTAATATGTAATCTAGGAATTTTGGTAATGTTTGAAATATTTTCTCATGGGGACACACCACTAAATTTGTCACCTCTAAAACAGTACTTAGGTTAAATGCTTTTTAAATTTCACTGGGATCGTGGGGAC | -0.00975 ratio
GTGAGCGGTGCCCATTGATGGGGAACACCAAAGTATCACAGGGAGAGATGGGCCTCTTGGGGCAGCAGCAGCAGCTGAAGCAGGCTGACTCACAGCTGCTTCTAATATGCTAGGCTTTGTGTAATCTGGCTTTATGACACAAGTGGGCTGACTACAGTGCAATTGGAGTGTGGCATCTGAGTCACTGTGAGGCTCTAGCTGGCTTCTTCCAGCCCTGGCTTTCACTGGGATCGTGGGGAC | -0.0245 ratio
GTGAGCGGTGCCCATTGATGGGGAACAAGTGAAGATGATAAATATGATGGTTTGGGAATTTTTGCCTGGCTGCCATATGCACGAGGAACTAACCAGAGTCTGAAACAGAGAAACCAATGTAATCTAATAACAGAGTTTTTAATTTATATTGTCAATAAATATTAATCAGATATTTTATCAGTTCCTAAAAATGTTGTTTTAATATTTTTCCTACTTTGGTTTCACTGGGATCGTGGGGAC | 0.149 ratio
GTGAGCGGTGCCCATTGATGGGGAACACACCCTTGACCTCTTCATATTGACATCATACGGTACTATATCCTCACAAAATGATTTCCAGTGCTTAATTTAGGTTGTAGCTGCTTTCTTAAGCAAACAGGAAGAAAAACAGCTAGGGTAGTAATTGGAGTGTCTGTCTTTGAGTTTCCAGTTGTTATGGGATATTTATCTCAAAGGCCAGATGCATCTGACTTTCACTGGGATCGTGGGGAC | 0.218 ratio

Sample 2
Target: CCNB3, cyclin fold, Cln2 fusion (human)
Method: yeast growth competition, sequencing
Medium: yeast
Notes: weak parent motif
Relative to: not given
Direction: higher = stronger binding
Starting sequence: CDC6 docking peptide (human); TLKGRRLVFDNQL; partner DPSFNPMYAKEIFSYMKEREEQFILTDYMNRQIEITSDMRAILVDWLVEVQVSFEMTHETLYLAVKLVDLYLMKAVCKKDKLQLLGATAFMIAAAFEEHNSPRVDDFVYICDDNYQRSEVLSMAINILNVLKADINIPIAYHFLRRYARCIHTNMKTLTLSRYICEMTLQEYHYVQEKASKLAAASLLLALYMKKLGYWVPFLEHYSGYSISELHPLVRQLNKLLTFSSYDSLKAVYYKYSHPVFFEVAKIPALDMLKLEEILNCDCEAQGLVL
Substitution | normalised enrichment score
TLKGRRFVFDNQL [L7F] | 0.165
TLKGRRLVFDNYL [Q12Y] | 0.835
CLKGRRLVFDNQL [T1C] | 0.244
TLKGRRLVFDNQN [L13N] | 0.203
TLKGRRLVFDNQF [L13F] | 0.475
TLKGRRLPFDNQL [V8P] | 0.0159
TLKGLRLVFDNQL [R5L] | 0.362
TLKGRRLVKDNQL [F9K] | 0.666

Sample 3
Target: RNA binding protein fox-1 homolog 2, RRM domain, GST-SBP tag (RBFOX2, Homo sapiens, UniProt O43251-10, residues 100-194)
Method: RNA Bind-n-Seq
Molecule type: RNA
Medium: in vitro
Tested at: 365 nM
Notes: natural RNA segment, single round, ends assumed
Relative to: no-protein control
Direction: higher = stronger binding
Residues (chain): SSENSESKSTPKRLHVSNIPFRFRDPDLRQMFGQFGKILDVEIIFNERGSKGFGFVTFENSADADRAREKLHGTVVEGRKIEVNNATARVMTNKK
Strand | RBNS enrichment (R)
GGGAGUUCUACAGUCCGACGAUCUAGCCAGUGGGAUGCCACUGCUUGCCACCACCUGUCCCCAGGCUUAGGUUUAGGGGAUGCGUAUACUUACUCCACACACGAGUUAGAAGUAUGAGUUGGCUGGUCAACUUUGGAAUUCUCGGGUGCCAA | 0.281
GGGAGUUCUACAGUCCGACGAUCGCCCCAUGGACACUUUUUUAAAUCUCCAGGAUGUCUGAAACAAACCAGUAAAAUGUCUAUGACUCUUACAUGUUGUCAUUCUUCUUCUUUUGGCUUUGCUGCUCUGAUGAUGGAAUUCUCGGGUGCCAA | 0.599
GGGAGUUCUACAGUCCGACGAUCUGCGGCUGGGCUGCUUUAGGAGACCAAGUGGCAAGAAAGCUCACAUUUUUUGAGUUCAAAUGCUACUGUCCAAGCGAGAAGUCCCUCAUCCUGAAGUAGACUAAAGCCCGUGGAAUUCUCGGGUGCCAA | 0.228
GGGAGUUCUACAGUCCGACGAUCUGCAAUAUUAUAAAAGAAGUAAUCUUAUUUUAGCUCAUUCUGUGACAUGUGCGACUCUUAAGAAAGCCAUACUUAAUGGUGGUGGUUUUUUUUAGAUCUUAUAUUGUGUUUGGAAUUCUCGGGUGCCAA | 0.617
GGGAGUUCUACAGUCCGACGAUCCAGAAGCCUCCCUUCUGUGCACAGGAGCCAGUUUCACAGAUGGAGAAGAUGUCUCAGAUGAAGGGAGUGUCCCUGAGAUAUCAUCCUUUUCUUCUGCCUCGCCUGAAUCCUGGAAUUCUCGGGUGCCAA | 0.374
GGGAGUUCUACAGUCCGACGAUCUCCGGACCUACCUCAGGGAGCUGAGCGUGCAGGCGCUCCAGGGCAGGCCUGGGACAGAGUCAAGGCUCAGAGAAUAAAGGUAGCUAAUCUCAUCAUAAUAUUUUUAUUAGUGGAAUUCUCGGGUGCCAA | 0.785

Single results of other studies
Substance | target | test | test system | setting | how to read | measurement | value
PhoQ, residues 284 288 289 292 302 303 TTSMTC | PhoP, residues 12 14 15 18 19 IQSYL (Escherichia coli, UniProt P23836) | Sort-seq, measured: YFP reporter | E. coli | PhoQ-PhoP variant library, together with: 10 µM Mg2+ | relative to: high Mg2+ state, higher = stronger signaling | fold induction | 11.2

Some of these lines once more (sample 3):
Strand | RBNS enrichment (R)
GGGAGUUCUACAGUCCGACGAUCGCCCCAUGGACACUUUUUUAAAUCUCCAGGAUGUCUGAAACAAACCAGUAAAAUGUCUAUGACUCUUACAUGUUGUCAUUCUUCUUCUUUUGGCUUUGCUGCUCUGAUGAUGGAAUUCUCGGGUGCCAA | 0.599
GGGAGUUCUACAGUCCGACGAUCCAGAAGCCUCCCUUCUGUGCACAGGAGCCAGUUUCACAGAUGGAGAAGAUGUCUCAGAUGAAGGGAGUGUCCCUGAGAUAUCAUCCUUUUCUUCUGCCUCGCCUGAAUCCUGGAAUUCUCGGGUGCCAA | 0.374
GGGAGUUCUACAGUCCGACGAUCUAGCCAGUGGGAUGCCACUGCUUGCCACCACCUGUCCCCAGGCUUAGGUUUAGGGGAUGCGUAUACUUACUCCACACACGAGUUAGAAGUAUGAGUUGGCUGGUCAACUUUGGAAUUCUCGGGUGCCAA | 0.281
